Experimental data of several laboratories.
Parts stem from different laboratories: compare values within a part only. Substitutions count along the parent as printed.
UniProt Q9ZSY8, sequence (whole entry, looked up): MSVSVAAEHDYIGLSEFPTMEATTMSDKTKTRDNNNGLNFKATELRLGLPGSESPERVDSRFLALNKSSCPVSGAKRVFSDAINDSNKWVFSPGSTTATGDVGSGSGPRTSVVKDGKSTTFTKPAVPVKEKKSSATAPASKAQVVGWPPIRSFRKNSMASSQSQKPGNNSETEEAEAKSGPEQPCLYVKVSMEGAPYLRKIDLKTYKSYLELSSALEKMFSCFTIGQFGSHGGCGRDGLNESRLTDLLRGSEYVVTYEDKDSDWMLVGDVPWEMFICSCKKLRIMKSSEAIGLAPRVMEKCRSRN
UniProt Q9FX25, sequence (whole entry, looked up): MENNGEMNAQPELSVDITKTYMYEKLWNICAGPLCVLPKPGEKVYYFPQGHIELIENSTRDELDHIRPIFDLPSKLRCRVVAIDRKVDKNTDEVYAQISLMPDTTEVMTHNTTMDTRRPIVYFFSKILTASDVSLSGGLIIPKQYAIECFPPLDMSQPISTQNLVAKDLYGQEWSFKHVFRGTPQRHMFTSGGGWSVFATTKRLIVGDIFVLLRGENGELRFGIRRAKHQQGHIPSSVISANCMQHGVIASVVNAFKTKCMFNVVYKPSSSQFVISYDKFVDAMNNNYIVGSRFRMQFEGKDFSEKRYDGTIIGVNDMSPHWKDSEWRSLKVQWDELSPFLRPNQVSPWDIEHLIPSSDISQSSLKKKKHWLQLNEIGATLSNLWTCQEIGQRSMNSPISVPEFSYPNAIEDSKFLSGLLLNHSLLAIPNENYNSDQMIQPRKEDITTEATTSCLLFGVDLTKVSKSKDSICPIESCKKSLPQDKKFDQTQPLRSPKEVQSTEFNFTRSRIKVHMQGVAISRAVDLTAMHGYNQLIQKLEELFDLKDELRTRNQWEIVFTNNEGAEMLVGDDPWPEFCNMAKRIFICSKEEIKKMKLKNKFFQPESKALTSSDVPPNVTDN
UniProt Q8LAL2, sequence (whole entry, looked up): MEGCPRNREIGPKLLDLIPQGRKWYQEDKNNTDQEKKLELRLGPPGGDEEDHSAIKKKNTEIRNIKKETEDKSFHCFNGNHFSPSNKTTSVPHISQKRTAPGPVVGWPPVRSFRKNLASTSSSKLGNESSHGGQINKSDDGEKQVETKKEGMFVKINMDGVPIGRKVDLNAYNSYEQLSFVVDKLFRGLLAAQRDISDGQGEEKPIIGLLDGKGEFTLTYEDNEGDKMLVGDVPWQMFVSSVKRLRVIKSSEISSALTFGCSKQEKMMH

Study 1 — target: CCNB1, cyclin fold, Cln2 fusion (human); method: yeast growth competition, sequencing; matrix: yeast; notes: strong parent motif; relative to: not given; reading: higher = stronger binding; measurement: normalised enrichment score
Starting sequence: E2F1 docking peptide (human); PPVKRRLDLETDH; partner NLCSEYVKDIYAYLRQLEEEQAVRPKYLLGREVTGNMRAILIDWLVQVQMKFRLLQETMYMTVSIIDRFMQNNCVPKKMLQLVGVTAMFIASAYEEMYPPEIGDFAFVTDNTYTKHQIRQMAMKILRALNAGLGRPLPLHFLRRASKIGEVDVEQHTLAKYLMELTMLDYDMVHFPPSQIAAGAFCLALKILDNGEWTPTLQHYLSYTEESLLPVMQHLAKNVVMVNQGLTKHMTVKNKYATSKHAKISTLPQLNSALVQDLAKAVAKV
PPVKTRLDLETDH [R5T]: -0.342
PPVKRRLDLETHH [D12H]: 0.318
PRVKRRLDLETDH [P2R]: 0.654
PPVKRILDLETDH [R6I]: 0.323
PPVKRPLDLETDH [R6P]: 0.401
PPVKRVLDLETDH [R6V]: 0.294
PPVKRRLDLETWH [D12W]: 0.84
PPVKRRLDLETDF [H13F]: 0.765
PPVKRRLDLENDH [T11N]: 0.896
PPVKRRFDLETDH [L7F]: 0.22
PPAKRRLDLETDH [V3A]: 1.15
PPVKRRLDLETDG [H13G]: 2.02
PPIKRRLDLETDH [V3I]: 0.266
KPVKRRLDLETDH [P1K]: 1.55
PPVKRRSDLETDH [L7S]: 0.0775
PPHKRRLDLETDH [V3H]: 0.211
PLVKRRLDLETDH [P2L]: -0.00132
PPVMRRLDLETDH [K4M]: 2.48
PPVKRRLDLETAH [D12A]: 0.963
PPVKRRHDLETDH [L7H]: 0.693
PPVKRRIDLETDH [L7I]: 0.79
PPVKRRLFLETDH [D8F]: 2.48

Study 2 — method: protein-binding microarray; form: double-stranded DNA, one strand shown; matrix: in vitro; concentration: 0.8 µM; notes: whole 60-bp probe, no competitor; reading: higher = stronger binding; measurement: fluorescence intensity; constant ends, left off below: … GTCTTGATTCGCTTGACGCTGCTG
Target: Centromere-binding protein 1, full length, N-terminal tag (CBF1, Saccharomyces cerevisiae, UniProt P17106, residues 1-351)
UniProt P17106, sequence (whole entry, looked up): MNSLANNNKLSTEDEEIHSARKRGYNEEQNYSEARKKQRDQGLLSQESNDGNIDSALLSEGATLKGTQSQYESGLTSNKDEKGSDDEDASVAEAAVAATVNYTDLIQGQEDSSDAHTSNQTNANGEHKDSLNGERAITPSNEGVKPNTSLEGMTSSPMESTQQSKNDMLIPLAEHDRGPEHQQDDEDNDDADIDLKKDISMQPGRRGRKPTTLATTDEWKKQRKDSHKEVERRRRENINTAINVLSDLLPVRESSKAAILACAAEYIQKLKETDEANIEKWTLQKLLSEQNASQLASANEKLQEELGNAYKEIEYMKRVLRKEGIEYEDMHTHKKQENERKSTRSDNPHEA
GAAGAATGTTGCCTTCACATGTTAATGAATGAATAG: 717 a.u.
CTATTTGTGGCCGATCACGCTAAAGATTAGGCATTC: 649 a.u.
GAATTTTGTTTTTATCAGTTGAGATTGAAGTATTAG: 539 a.u.
CTACAATCAAAACCATGTGAGATACCCACTTCGTTC: 645 a.u.
CTATAGCAATGTCAGCATCAGAGATACCTTCCATTC: 482 a.u.
CTAATTCTGCTTGACCACGAATGTACTGCTAATTTC: 538 a.u.
GAAATAAAAGCAACCCACGTAACAAATTGCGAATAG: 516 a.u.
CTAAGGTCCCCTCACCACGAAAATCCAAGATTTTTC: 468 a.u.
GAAAAAAGGCAATATCACGTGCTTTTACAAATATAG: 11200 a.u.
CTATGAAAAAGGGTCTTGGTGGTGTTGCAGTTGTTC: 526 a.u.
CTAAATGGTTTTTATCACGTCCTAACGACATCATTC: 628 a.u.
CTATGCTTAGGAAGGTACGTGCGCCTCCTAACCTTC: 491 a.u.
GAAGATATAGATGTGCACATGTCGTTTTTTGAGTAG: 913 a.u.
GAATAGTACGCCTTTCACATGGCCTGTCGATCCTAG: 584 a.u.
GAAGACACCGATAAACAGGTGAAATATTGAAAATAG: 553 a.u.
GAACATCTCGTAGATCACCAGGGCACACAACAATAG: 601 a.u.
GAATTACTTTTACGCCACGAGTGATCTAAAAATTAG: 611 a.u.
GAACAAACCGCAGATTGCGTCACGGTTCTGCGGTAG: 705 a.u.
GAACATTATAAGATGCACGTTTCAACATACTGTTAG: 675 a.u.

Study 3 — target: UBE2L3 UBC core domain (UniProt P68036); method: yeast two-hybrid; matrix: yeast; notes: mostly zero background; relative to: not given; reading: higher = stronger interaction; measurement: lacZ reporter activity
UniProt P68036, sequence (whole entry, looked up): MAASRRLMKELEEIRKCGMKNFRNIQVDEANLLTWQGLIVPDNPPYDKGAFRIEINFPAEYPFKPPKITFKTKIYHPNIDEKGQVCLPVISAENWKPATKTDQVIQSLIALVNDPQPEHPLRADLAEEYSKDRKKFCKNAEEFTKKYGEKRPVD
B1: DZIP3 RING domain (UniProt Q86Y13); chain PDEEEEEEEPCVICHENLSPENLSVLPCAHKFHAQCIRPWLMQQGTCPTCRLHVLLPEEFP
B2: RFWD3 RING domain (UniProt Q6PCD5); chain ASMDEEEGDTCTICLEQWTNAGDHRLSALRCGHLFGYRCISTWLKGQVRKCPQCNKKARHSDIVV
B3: RNF19A RING domain (UniProt Q9NV58); chain ISKQIGDFIECPLCLLRHSKDRFPDIMTCHHRSCVDCLRQYLRIEISESRVNISCPECTERFNPHDIR
B4: ZMIZ2 RING domain (UniProt Q8NF64); chain GTIPGTPGPNGEDGVEQTAIKVSLKCPITFRRIQLPARGHDCRHIQCFDLESYLQLNCERGTWRCPVCNKTALLEGLEVDQYMLGILIYIQNSDYEEITIDPTCSWK
B5: RNF121 RING domain (UniProt Q9H920); chain MPTKHLSDSVCAVCGQQIFVDVSEEGIIENTYRLSCNHVFHEFCIRGWCIVGKKQTCPYCKEKVDLKRMFS
B6: MAP3K1 RING domain (UniProt Q13233); chain NSIKDEEEQMCPICLLGMLDEESLTVCEDGCRNKLHHHCMSIWAEECRRNREPLICPLCRSKWRSHDFYS
B7: UBOX5 RING domain (UniProt O94941); chain EQPGSILGPECASCKRVFSPYFKKEPVYQLPCGHLLCRPCLGEKQRSLPMTCTACQRPVASQDVLR
B8: RBCK1 RING domain (UniProt Q9BYM8); chain SLVLNTEPAECPVCYSVLAPGEAVVLRECLHTFCRECLQGTIRNSQEAEVSCPFIDNTYSCSGKLLEREIK
B9: RNF133 RING domain (UniProt Q8WVZ7); chain DEEINPNGDSCVICFERYKPNDIVRILTCKHFFHKNCIDPWILPHGTCPICKCDILKVLGIQ
FDGDVDPDLKCALCHKVLEDPLTTPCGHVFCAGCVLPWVVQEGSCPARCRGRLSAKELN (PDZRN3 RING domain (UniProt Q9UPQ7)): 0
GSRLQEINDVCAICYHEFTTSARITPCNHYFHALCLRKWLYIQDTCPMCHQKVYIEDDIK (RNF139 RING domain (UniProt Q8WU17)): 0
B1 (DZIP3 RING domain): 0
B2 (RFWD3 RING domain): 0
B3 (RNF19A RING domain): 0
B4 (ZMIZ2 RING domain): 0
B5 (RNF121 RING domain): 0
B6 (MAP3K1 RING domain): 0
B7 (UBOX5 RING domain): 0
B8 (RBCK1 RING domain): 0
AVPSGLEENLCKICMDSPIDCVLLECGHMVTCTKCGKRMNECPICRQYVIRAVHVF (RFFL RING domain (UniProt Q8WZ73)): 0
B9 (RNF133 RING domain): 0

Study 4 — method: protein-binding microarray; form: double-stranded DNA, one strand shown; matrix: in vitro; concentration: 940 nM top; notes: 60-bp whole probe; with: salmon DNA 0.4 mg/ml; relative to: random background probes; reading: higher = stronger binding; measurement: fitted relative affinity; constant ends, left off below: GCCTAGCAC … GTCTTGATTCGCTTGACGCTGCTG
Target: Interferon regulatory factor 5, full length, phosphomimetic (IRF5, Homo sapiens, UniProt Q13568-2, residues 1-514, S451D/S453D/S456D/S462D)
TTAGGTTTAGGTATCGGTTAGTGCTAG: 5.68 z-score
TTAGAACTGAGTCTTGATTAGTGCTAG: -0.194 z-score
TCACCTTTTGCTTTACTACTGTGCTAG: 1.37 z-score
GACGGTATCCTTCTCCTTACGTGCTAG: 0.753 z-score
TCATTTCTCCCAAGTCTTACTGTGCTA: 1.31 z-score
TATTTTCTGAATGTCTTCCCGTGCTAG: 1.07 z-score
TTAGGTATCGGGTATCGGTCAGTGCTA: 7.03 z-score
TTAGGTATCGGGGCTGGGTTAGTGCTA: 4.12 z-score
TCACGTCTGAGCTCCGTACTGTGCTAG: -0.0569 z-score
TTAGGACTGTTTCTCCTTTAGTGCTAG: 0.543 z-score
GACGGCCTGCTTATCCTGACGTGCTAG: -0.092 z-score
TCAGAATTAGGTTTCACACTGTGCTAG: 1.72 z-score
GACGATTTCGGGTTTCGAAACGTGCTA: 3.22 z-score
TTAGGTATCGGTATCGATTAGTGCTAG: 10.9 z-score
AACGATTCCAGTTTCGAGACGTGCTAG: 4.04 z-score
GACGAACTGAGTCTAGAGACGTGCTAG: -0.617 z-score
TCAATCTTCACTCTTAATTAGTGCTAG: 0.795 z-score
TTAGATATCGGGACGGGATTAGTGCTA: 0.386 z-score
TCAACTCTTTACATGGGACTGTGCTAG: 0.619 z-score
GACGGTTTCGGACTGGGGAAGTGCTAG: 6.6 z-score
GACGGTATCGGGACTGCGGACGTGCTA: 3.09 z-score
TTAGACCTGGGGTTTCGATTAGTGCTA: 5.52 z-score
TTAAGTCTCCTTATCCTTTAGTGCTAG: 0.865 z-score
GGCGGTTTCGGTCTCGGGACGTGCTAG: 14.4 z-score
GACGGTCTCCTTCTCCTGTCGTGCTAG: 1.7 z-score

Study 5 — method: two-hybrid; relative to: out of 4 tests; reading: higher = firmer interaction; measurement: positive tests
Partner: ARF14 497-605 (Arabidopsis thaliana, UniProt Q9LQE8)
Target sequence (chain): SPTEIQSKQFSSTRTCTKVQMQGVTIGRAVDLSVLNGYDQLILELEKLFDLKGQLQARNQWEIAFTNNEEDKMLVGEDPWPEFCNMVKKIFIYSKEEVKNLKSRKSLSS
IAA27 (Arabidopsis thaliana, UniProt Q9ZSY8): 0
ARF13 (Arabidopsis thaliana, UniProt Q9FX25): 0
IAA26 (Arabidopsis thaliana, UniProt Q8LAL2): 0

A few entries again (study 3):
B4 (ZMIZ2 RING domain): 0
B9 (RNF133 RING domain): 0
B2 (RFWD3 RING domain): 0
B7 (UBOX5 RING domain): 0
B1 (DZIP3 RING domain): 0
B8 (RBCK1 RING domain): 0
FDGDVDPDLKCALCHKVLEDPLTTPCGHVFCAGCVLPWVVQEGSCPARCRGRLSAKELN (PDZRN3 RING domain (UniProt Q9UPQ7)): 0
AVPSGLEENLCKICMDSPIDCVLLECGHMVTCTKCGKRMNECPICRQYVIRAVHVF (RFFL RING domain (UniProt Q8WZ73)): 0
B3 (RNF19A RING domain): 0
GSRLQEINDVCAICYHEFTTSARITPCNHYFHALCLRKWLYIQDTCPMCHQKVYIEDDIK (RNF139 RING domain (UniProt Q8WU17)): 0
B5 (RNF121 RING domain): 0
B6 (MAP3K1 RING domain): 0
